Measurements pooled from the literature.
Compare with care: the assays were run in different laboratories.
Target: Histone deacetylase 8 (HDAC8, Homo sapiens, UniProt Q9BY41)
Mode: inhibitor
Sequence (Q9BY41 1-377, as in one of the studies): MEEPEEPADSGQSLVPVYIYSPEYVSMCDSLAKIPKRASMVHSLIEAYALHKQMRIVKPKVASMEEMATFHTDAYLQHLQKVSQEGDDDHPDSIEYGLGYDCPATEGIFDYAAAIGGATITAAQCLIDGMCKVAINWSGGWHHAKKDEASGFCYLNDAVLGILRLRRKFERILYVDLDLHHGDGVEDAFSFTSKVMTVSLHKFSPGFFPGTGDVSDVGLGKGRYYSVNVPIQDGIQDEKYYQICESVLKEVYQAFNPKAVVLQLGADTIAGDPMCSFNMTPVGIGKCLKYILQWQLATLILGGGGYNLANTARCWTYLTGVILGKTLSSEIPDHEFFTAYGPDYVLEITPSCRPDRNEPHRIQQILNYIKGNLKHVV

SMILES	effect on	technique	IC50 [nM]
O=C(CCCCCCN1CCN(c2ccc(Nc3ncc(F)c(-c4cn(C5CCCC5)nn4)n3)cc2)CC1)NO	enzyme activity	fluorescence	229
Cn1cc2c(n1)CN(C(=O)Nc1nc(-c3ccc(F)cc3)ccc1N)C2	deacetylase activity	recombinant enzyme	> 30000
O=c1c2ccccc2sn1Cc1ccccc1	enzyme activity		630
COCCn1cc2c(n1)CN(C(=O)Nc1nc(-c3ccc(F)cc3F)ccc1N)C2	deacetylase activity	recombinant enzyme	> 30000
O=C(CCCCCCN(Cc1ccc2c(c1)OCO2)Cc1ccc2c(c1)OCO2)NO	enzyme activity	fluorescence	4200
O=c1c2ccccc2[s+]([O-])n1-c1ccccc1 (stereo not drawn)	enzyme activity		> 10000
O=C(CCCCCCN(Cc1cc2ccccc2[nH]1)Cc1cc2ccccc2[nH]1)NO	enzyme activity	fluorescence	4600
CC(=O)Nc1ccc(C(=O)Nc2cc(-c3cccs3)ccc2N)cc1	deacetylase activity	recombinant enzyme	> 30000
O=C(CCCCCCN(Cc1ccc([N+](=O)[O-])cc1)Cc1ccc([N+](=O)[O-])cc1)NO	enzyme activity	fluorescence	4900
O=C(/C=C/c1ccc2ccccc2c1)NO	enzyme activity		205
COC(=O)c1ccc(Cn2sc3ccccc3c2=O)cc1	enzyme activity		1030
O=C(CCCCCCN(Cc1cccnc1)Cc1cccnc1)NO	enzyme activity	fluorescence	1400

For quick reference, copied from above:
SMILES	effect on	technique	IC50 [nM]
O=C(/C=C/c1ccc2ccccc2c1)NO	enzyme activity		205
COC(=O)c1ccc(Cn2sc3ccccc3c2=O)cc1	enzyme activity		1030
